Experimental data gathered from unrelated publications.
A part holds a random share of what one study measured.
UniProt P57078, sequence (whole entry, looked up): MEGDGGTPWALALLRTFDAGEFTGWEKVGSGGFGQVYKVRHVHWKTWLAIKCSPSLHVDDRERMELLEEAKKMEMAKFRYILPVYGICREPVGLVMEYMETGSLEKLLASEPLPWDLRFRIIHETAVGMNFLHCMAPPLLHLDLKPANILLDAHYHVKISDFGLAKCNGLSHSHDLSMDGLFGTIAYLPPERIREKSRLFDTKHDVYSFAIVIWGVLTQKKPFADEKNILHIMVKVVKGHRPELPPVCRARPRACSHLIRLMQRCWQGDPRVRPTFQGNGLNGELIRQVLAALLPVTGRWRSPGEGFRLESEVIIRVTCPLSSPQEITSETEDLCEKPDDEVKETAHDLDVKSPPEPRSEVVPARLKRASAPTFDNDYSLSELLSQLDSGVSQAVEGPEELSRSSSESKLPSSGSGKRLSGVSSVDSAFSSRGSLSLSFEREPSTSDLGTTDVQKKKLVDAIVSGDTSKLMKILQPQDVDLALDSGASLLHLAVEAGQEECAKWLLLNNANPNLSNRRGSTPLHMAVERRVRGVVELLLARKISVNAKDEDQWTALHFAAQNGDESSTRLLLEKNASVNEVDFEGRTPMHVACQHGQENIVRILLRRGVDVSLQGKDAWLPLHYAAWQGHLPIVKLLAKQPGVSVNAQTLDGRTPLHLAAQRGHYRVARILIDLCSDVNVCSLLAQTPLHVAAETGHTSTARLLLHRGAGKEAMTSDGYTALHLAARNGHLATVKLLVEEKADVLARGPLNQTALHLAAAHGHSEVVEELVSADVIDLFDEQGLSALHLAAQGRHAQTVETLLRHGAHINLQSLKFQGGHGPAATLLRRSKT
UniProt P11802, sequence (whole entry, looked up): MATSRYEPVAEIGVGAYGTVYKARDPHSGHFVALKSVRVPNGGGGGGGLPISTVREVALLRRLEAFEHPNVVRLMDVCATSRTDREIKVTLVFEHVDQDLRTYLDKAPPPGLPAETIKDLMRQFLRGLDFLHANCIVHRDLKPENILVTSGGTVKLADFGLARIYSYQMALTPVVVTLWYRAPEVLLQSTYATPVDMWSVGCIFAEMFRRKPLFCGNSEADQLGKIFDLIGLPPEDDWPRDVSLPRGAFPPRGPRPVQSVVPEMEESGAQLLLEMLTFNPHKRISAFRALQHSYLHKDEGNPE
UniProt P53671, sequence (whole entry, looked up): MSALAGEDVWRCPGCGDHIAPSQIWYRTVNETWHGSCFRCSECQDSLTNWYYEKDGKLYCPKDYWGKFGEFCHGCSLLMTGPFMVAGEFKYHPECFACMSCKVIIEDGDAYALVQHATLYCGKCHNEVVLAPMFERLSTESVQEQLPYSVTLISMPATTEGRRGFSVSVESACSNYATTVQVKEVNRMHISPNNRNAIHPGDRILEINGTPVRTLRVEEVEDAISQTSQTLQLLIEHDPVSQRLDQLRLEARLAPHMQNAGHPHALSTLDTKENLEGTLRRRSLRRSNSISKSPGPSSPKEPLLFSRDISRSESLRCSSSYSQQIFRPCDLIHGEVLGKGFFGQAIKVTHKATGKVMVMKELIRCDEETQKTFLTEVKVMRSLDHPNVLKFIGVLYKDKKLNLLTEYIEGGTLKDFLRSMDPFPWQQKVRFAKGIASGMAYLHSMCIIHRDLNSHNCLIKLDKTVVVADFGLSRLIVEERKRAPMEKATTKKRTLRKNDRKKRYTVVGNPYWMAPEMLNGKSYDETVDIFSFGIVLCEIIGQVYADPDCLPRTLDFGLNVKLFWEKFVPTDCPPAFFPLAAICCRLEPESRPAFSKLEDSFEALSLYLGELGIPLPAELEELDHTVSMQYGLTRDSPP
UniProt P53779, sequence (whole entry, looked up): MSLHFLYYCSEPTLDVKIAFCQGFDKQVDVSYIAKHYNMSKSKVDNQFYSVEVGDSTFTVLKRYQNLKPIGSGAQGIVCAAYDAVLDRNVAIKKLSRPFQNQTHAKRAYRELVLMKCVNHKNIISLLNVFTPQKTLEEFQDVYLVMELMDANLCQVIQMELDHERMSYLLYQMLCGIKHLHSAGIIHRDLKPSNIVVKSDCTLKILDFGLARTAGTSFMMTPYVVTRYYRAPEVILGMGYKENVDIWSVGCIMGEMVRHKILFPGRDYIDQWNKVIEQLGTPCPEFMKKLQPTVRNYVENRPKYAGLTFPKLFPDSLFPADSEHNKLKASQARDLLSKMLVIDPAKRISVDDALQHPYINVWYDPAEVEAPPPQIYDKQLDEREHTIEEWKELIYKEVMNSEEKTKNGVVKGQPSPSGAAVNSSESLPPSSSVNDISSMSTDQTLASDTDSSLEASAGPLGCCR
UniProt P36894, sequence (whole entry, looked up): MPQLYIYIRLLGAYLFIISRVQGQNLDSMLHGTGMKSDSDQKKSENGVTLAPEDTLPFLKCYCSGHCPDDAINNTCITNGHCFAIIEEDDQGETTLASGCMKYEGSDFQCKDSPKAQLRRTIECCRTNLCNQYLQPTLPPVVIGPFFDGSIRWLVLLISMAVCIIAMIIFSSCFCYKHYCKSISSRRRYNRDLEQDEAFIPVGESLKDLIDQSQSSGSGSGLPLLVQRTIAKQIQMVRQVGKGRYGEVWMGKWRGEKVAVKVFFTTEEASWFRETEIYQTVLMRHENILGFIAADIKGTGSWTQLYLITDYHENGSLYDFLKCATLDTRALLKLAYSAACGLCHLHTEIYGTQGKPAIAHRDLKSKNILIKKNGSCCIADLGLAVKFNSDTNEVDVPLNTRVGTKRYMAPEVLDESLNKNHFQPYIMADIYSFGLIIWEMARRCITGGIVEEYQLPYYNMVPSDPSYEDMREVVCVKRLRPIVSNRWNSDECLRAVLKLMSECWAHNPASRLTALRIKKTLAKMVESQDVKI
UniProt O75716, sequence (whole entry, looked up): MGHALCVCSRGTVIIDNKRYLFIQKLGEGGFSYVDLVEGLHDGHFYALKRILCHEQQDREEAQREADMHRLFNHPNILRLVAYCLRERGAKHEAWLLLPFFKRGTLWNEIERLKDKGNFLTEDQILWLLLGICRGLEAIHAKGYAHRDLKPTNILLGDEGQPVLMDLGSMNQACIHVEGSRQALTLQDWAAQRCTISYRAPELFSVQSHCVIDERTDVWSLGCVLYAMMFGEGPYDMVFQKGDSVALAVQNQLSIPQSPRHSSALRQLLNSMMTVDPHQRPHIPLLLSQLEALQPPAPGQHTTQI

Set 1 — cell line: normal-adjacent organoid sample F; technique: CellTiter-Glo; concentration: 1 µM; notes: replicate mean; relative to: DMSO; quantity: viability
Compound = CCc1ccccc1C(=O)Nc1n[nH]c2c(C)c(F)c(C3C(C#N)=C(C)N(C)C(C)=C3C#N)cc12; result = 102%
Compound = CCCCN(CCCC)C(=O)CN1C[C@@H](c2cc(OC)c3c(c2)OCO3)[C@H](C(=O)O)[C@H]1CC(C)(C)CCC; result = 103%
Compound = CCOCCn1cc(C(=O)Nc2ccc(-n3nc(-c4cccnc4)cc3C(F)(F)F)cn2)ccc1=O; result = 99.4%
Compound = Cc1c(NC(=O)c2ccc(C(C)(C)C)cc2)cccc1-c1cn(C)c(=O)c(Nc2ccc(C(=O)N3CCOCC3)cc2)n1; result = 149%
Compound = CCNC(=O)c1cc2c(N3CCOC[C@@H]3C)ccnc2[nH]1; result = 110%
Compound = C[C@@H]1CN(c2cc(-c3nn(C)c4ccc(OC5(C)CC5)cc34)ncn2)C[C@H](C)O1; result = 99.9%
Compound = Cc1c(C(=O)O)cc(-c2ccc(C3CCNCC3)cc2)c2ccc(-c3ccc(C(F)(F)F)cc3)cc12; result = 115%
Compound = CO[C@@H](C)c1c(Nc2ccc([C@H](N(C)C(=O)C3CCS(=O)(=O)CC3)C(F)(F)F)cc2)cnc2cc(Cl)nn12; result = 81.7%
Compound = CC(=O)N1CCC(c2ccc(C(=O)NC(=N)N)cc2C(F)(F)F)CC1; result = 110%
Compound = Cn1nc(C(=O)NCc2ccc(C(=O)O)cc2)cc1-c1ccc2[nH]ccc2c1; result = 107%
Compound = CC(=O)Nc1c(F)cc(C(=O)N[C@H]2CC[C@H](O)CC2)cc1O[C@@H](C)c1ccccc1; result = 76.2%
Compound = O=C(NCCN1CCOCC1)c1ccc2c(c1)C(=O)c1ccc(Nc3ccc(F)c(NC(=O)c4ccccc4)c3)cc1CC2; result = 74.7%
Compound = O=c1nc(-c2ccccn2)sc2ccccc12; result = 99.6%
Compound = CC(=O)Nc1c(C(C)=O)c(=O)n(C)c2nc(-c3ccc(Cl)cc3Cl)c(-c3ccc(Cl)cc3)cc12; result = 111%
Compound = Cc1cc(NC(=O)c2cccc(S(F)(F)(F)(F)F)c2)cc(-n2ccn3nc(-c4cccnc4)cc23)c1; result = 97.3%
Compound = Cc1ccc2nc(CNCCCOc3ccccc3)cc(O)c2c1; result = 121%

Set 2 — read-out: enzyme activity; mode: inhibitor; concentration: 10 µM; quantity: inhibition
Target: Calcium/calmodulin-dependent protein kinase type II subunit alpha (CAMK2A, Homo sapiens, UniProt Q9UQM7)
UniProt Q9UQM7, sequence (whole entry, looked up): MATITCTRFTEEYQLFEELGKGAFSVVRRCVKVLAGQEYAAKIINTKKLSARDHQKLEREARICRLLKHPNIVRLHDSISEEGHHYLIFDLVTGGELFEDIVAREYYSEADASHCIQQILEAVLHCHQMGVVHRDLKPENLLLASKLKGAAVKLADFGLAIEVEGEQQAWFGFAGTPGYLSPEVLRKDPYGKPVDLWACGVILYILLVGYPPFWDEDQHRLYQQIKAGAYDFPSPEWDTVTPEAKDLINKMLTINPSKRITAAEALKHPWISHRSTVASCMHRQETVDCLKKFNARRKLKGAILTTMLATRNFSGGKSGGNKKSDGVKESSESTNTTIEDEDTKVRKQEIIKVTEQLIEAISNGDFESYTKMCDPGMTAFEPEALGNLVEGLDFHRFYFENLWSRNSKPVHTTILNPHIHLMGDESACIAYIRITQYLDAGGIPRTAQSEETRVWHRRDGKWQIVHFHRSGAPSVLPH
Compound = N=C(N)NCCCCN; result = -5%
Compound = O=C1CC2(CCCC2)CC(=O)N1CCCCN1CCN(c2ncccn2)CC1; result = -4%
Compound = C=C1C[C@H]2[C@@H]3CCC4=CC(=O)CC[C@@H]4[C@H]3CC[C@]2(C)[C@@]1(OC(C)=O)C(C)=O; result = -3%
Compound = NC(=O)NC(CC(=O)O)C(=O)O (racemic); result = 1%
Compound = OC[C@H]1NCC[C@@H](O)[C@@H]1O; result = 44%
Compound = CC(C)CN(C[C@@H](O)[C@H](Cc1ccccc1)NC(=O)O[C@H]1CCOC1)S(=O)(=O)c1ccc(N)cc1; result = -7%
Compound = O=C(O)C[C@@H](O)C(=O)O; result = -25%
Compound = NC(=O)NCCC[C@H](N)C(=O)O; result = 10%
Compound = CC(C)C12CCC(C)(CC1)O2; result = 1%
Compound = C=CCc1ccccc1OCC(O)CNC(C)C (stereo not shown); result = 1%
Compound = CC1=C(/C=C/C(C)=C/C=C/C(C)=C/C=C/C=C(C)/C=C/C=C(\C)C=O)C(C)(C)CCC1; result = -57%
Compound = O=C(/C=C/c1ccc(O)c2oc(-c3ccc(O)c(O)c3)cc12)O[C@H](Cc1ccc(O)c(O)c1)C(=O)O; result = 90%
Compound = O=C(O)[C@H]1O[C@@H](Oc2cc(O)c3c(=O)cc(-c4ccccc4)oc3c2)[C@H](O)[C@@H](O)[C@@H]1O; result = 16%
Compound = CONC(=O)Nc1ccc(-c2sc3c(c2CN(C)C)c(=O)n(-c2ccc(OC)nn2)c(=O)n3Cc2c(F)cccc2F)cc1; result = -11%
Compound = NC[C@H]1O[C@H](O[C@H]2[C@H](O[C@@H]3O[C@H](CO)[C@@H](O)[C@H]3O)[C@@H](O)[C@H](N)C[C@@H]2N)[C@H](N)[C@@H](O)[C@@H]1O; result = 9%
Compound = O=C1O[C@H]([C@@H](O)CO)C(=O)C1=O; result = 0%
Compound = COc1ccc(-c2cc(=O)c3c(OC)cc(OC)cc3o2)cc1; result = -3%
Compound = C[C@@H]1O[C@@H](OC[C@H]2O[C@@H](Oc3cc(O)c4c(=O)cc(-c5ccc(O)cc5)oc4c3)[C@H](O)[C@@H](O)[C@@H]2O)[C@H](O)[C@H](O)[C@H]1O; result = -4%
Compound = CC(=O)OCC1=CO[C@@H](OC(=O)CC(C)C)[C@H]2C1=C[C@H](OC(=O)CC(C)(C)OC(C)=O)[C@]21CO1; result = -37%

Set 3 — read-out: enzyme activity; mode: inhibitor; concentration: 0.5 µM; relative to: control; quantity: remaining activity
Target: Insulin receptor (INSR, Homo sapiens, UniProt P06213)
UniProt P06213, sequence (whole entry, looked up): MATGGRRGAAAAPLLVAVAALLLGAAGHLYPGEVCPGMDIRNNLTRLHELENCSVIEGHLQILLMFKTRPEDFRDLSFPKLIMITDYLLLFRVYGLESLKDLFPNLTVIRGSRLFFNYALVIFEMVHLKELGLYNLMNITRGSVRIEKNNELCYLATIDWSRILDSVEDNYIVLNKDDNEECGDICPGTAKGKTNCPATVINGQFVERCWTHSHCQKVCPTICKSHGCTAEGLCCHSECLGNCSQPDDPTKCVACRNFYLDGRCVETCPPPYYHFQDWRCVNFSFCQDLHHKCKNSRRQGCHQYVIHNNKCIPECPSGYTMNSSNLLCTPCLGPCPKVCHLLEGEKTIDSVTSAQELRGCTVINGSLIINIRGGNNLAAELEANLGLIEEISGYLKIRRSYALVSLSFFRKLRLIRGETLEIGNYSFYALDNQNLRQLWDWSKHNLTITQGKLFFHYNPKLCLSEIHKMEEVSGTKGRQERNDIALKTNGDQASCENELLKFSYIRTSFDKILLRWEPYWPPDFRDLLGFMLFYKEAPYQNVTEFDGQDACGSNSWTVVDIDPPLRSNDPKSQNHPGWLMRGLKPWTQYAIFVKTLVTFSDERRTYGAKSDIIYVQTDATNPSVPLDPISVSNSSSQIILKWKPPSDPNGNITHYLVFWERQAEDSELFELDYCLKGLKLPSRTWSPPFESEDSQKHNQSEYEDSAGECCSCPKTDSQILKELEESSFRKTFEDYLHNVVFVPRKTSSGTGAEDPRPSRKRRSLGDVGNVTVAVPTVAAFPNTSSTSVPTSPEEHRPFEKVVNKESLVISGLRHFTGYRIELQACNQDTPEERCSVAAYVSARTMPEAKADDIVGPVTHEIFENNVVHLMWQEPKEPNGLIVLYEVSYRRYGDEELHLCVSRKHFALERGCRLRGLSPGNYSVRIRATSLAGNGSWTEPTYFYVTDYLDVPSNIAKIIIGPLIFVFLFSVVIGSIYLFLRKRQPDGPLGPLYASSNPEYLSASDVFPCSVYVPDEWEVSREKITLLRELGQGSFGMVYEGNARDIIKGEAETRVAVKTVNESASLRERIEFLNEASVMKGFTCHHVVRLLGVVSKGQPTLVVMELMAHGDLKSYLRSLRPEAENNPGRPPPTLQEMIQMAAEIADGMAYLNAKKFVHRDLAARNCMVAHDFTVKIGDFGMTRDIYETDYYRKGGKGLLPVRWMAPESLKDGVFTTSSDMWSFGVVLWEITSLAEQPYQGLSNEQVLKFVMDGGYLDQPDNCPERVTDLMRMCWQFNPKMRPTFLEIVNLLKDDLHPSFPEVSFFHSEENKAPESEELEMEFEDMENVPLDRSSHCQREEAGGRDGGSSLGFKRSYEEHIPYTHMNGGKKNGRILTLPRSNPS
Structure (SMILES) = c1cc(-c2cnn3cc(-c4ccc(OCCN5CCCCC5)cc4)cnc23)ccn1; result = 94.9%
Structure (SMILES) = NC(=O)c1cccc(-c2cc(Nc3ccc(OC(F)(F)F)cc3)ncn2)c1; result = 105%
Structure (SMILES) = O=C(O)/C=C/c1cc(Br)c(Br)c(Br)c1Br; result = 98.6%
Structure (SMILES) = O=C1NC(=O)/C(=C/c2ccc3c(c2)OC(F)(F)O3)S1; result = 106%
Structure (SMILES) = N#C/C(=C(/N)SC1C=CC=CC1)c1cccc(C(O)c2ccncc2)c1 (stereo not shown); result = 105%
Structure (SMILES) = NC(=O)c1ccc(-c2nc(-c3ccc4c(c3)OCCO4)c(-c3ccccn3)[nH]2)cc1; result = 96.3%
Structure (SMILES) = O=Nc1c(-c2c(O)[nH]c3ccccc23)[nH]c2ccccc12; result = 66.8%
Structure (SMILES) = O=c1c(-c2ccc(F)cc2)c(-c2ccncc2)[nH]n1-c1ccc(Cl)cc1; result = 110%
Structure (SMILES) = C[C@@H](N)[C@H]1CC[C@H](C(=O)Nc2ccncc2)CC1; result = 94.4%
Structure (SMILES) = O=C1c2ccccc2-c2nc3nnnn3nc21; result = 32.3%
Structure (SMILES) = FC(F)(F)c1ccc(/C=C/c2nc(COc3ccc(CCCCn4ccnn4)cc3)co2)cc1; result = 99.6%
Structure (SMILES) = CNc1cc2c(Nc3cccc(Br)c3)ncnc2cn1; result = 100%
Structure (SMILES) = CC(C)n1cnc2c(Nc3cccc(Cl)c3)nc(NCCO)nc21; result = 97.3%
Structure (SMILES) = CCN(CC)CCCCN1c2ccccc2Oc2ccc(Cl)cc21; result = 109%
Structure (SMILES) = CC(C)(C)c1nc2c3cc[nH]c(=O)c3c3cc(F)ccc3c2[nH]1; result = 80.6%
Structure (SMILES) = N#CC(c1ccnc(NCCc2cccnc2)n1)c1nc2ccccc2s1 (stereo not shown); result = 100%
Structure (SMILES) = Clc1ccc(Nc2nnc(Cc3ccncc3)c3ccccc23)cc1; result = 99.9%
Structure (SMILES) = CC(C)N(CCC(=O)c1ccc2ccccc2c1)Cc1ccccc1; result = 107%
Structure (SMILES) = CCCCc1c(-c2ccc(O)cc2)[nH]c2nccnc12; result = 99.6%
Structure (SMILES) = O=C(c1ccccc1)c1ccc(N2CCOCC2)cc1O; result = 92.9%
Structure (SMILES) = COc1cc2c(N3CCN(C(=O)Nc4ccc(OC(C)C)cc4)CC3)ncnc2cc1OCCCN1CCCCC1; result = 99.3%

Set 4 — concentration: 1 µM; quantity: remaining binding
Compound: Cc1ccc(NC(=O)c2ccnc(C(F)(F)F)c2)cc1-c1cc(OCCO)nc(N2CCOCC2)c1
target = LIM domain kinase 2 (LIMK2, Homo sapiens, UniProt P53671); technique = competitive binding panel; relative to = vehicle; result = 88%
target = BMPR1A (Homo sapiens, UniProt P36894); technique = competitive binding panel; relative to = vehicle; result = 88%
target = FGR (Homo sapiens, UniProt P09769); technique = competitive binding panel; relative to = vehicle; result = 80%
target = MAPK10 (Homo sapiens, UniProt P53779); technique = competitive binding, scanMAX; notes = JNK3, 1000 nM; result = 90%
target = CSNK1D (Homo sapiens, UniProt P48730); technique = competitive binding panel; relative to = vehicle; result = 99%
target = STK16 (Homo sapiens, UniProt O75716); technique = competitive binding panel; relative to = vehicle; result = 100%
target = MAP3K6 (Homo sapiens, UniProt O95382); technique = competitive binding panel; refers to = ASK2; relative to = vehicle; result = 87%
target = CDK4 (Homo sapiens, UniProt P11802); technique = competitive binding scan; with = cyclin D3; result = 100%
target = CLK2 (Homo sapiens, UniProt P49760); technique = competitive binding panel; relative to = vehicle; result = 100%
target = STK11 (Homo sapiens, UniProt Q15831); technique = competitive binding panel; refers to = LKB1; relative to = vehicle; result = 100%
target = CILK1 (Homo sapiens, UniProt Q9UPZ9); technique = competitive binding scan; result = 94%
target = STK32B (Homo sapiens, UniProt Q9NY57); technique = competitive binding panel; refers to = YANK2; relative to = vehicle; result = 97%
target = KIT (Homo sapiens, UniProt P10721); technique = competitive binding scan; notes = autoinhibited form; result = 75%
target = JAK1 (Homo sapiens, UniProt P23458); technique = competitive binding panel; notes = JH1 catalytic domain; relative to = vehicle; result = 93%
target = PIK3CA (Homo sapiens, UniProt P42336, I800L); technique = competitive binding panel; relative to = vehicle; result = 88%
target = RIPK4 (Homo sapiens, UniProt P57078); technique = competitive binding panel; relative to = vehicle; result = 91%
target = PIM3 (Homo sapiens, UniProt Q86V86); technique = competitive binding panel; relative to = vehicle; result = 85%

Excerpt of the above (set 3):
Structure (SMILES) = c1cc(-c2cnn3cc(-c4ccc(OCCN5CCCCC5)cc4)cnc23)ccn1; result = 94.9%
Structure (SMILES) = NC(=O)c1cccc(-c2cc(Nc3ccc(OC(F)(F)F)cc3)ncn2)c1; result = 105%
Structure (SMILES) = O=C(O)/C=C/c1cc(Br)c(Br)c(Br)c1Br; result = 98.6%
Structure (SMILES) = O=C1NC(=O)/C(=C/c2ccc3c(c2)OC(F)(F)O3)S1; result = 106%
Structure (SMILES) = N#C/C(=C(/N)SC1C=CC=CC1)c1cccc(C(O)c2ccncc2)c1 (stereo not shown); result = 105%
Structure (SMILES) = NC(=O)c1ccc(-c2nc(-c3ccc4c(c3)OCCO4)c(-c3ccccn3)[nH]2)cc1; result = 96.3%
Structure (SMILES) = O=Nc1c(-c2c(O)[nH]c3ccccc23)[nH]c2ccccc12; result = 66.8%
Structure (SMILES) = O=c1c(-c2ccc(F)cc2)c(-c2ccncc2)[nH]n1-c1ccc(Cl)cc1; result = 110%
Structure (SMILES) = C[C@@H](N)[C@H]1CC[C@H](C(=O)Nc2ccncc2)CC1; result = 94.4%
Structure (SMILES) = O=C1c2ccccc2-c2nc3nnnn3nc21; result = 32.3%
Structure (SMILES) = FC(F)(F)c1ccc(/C=C/c2nc(COc3ccc(CCCCn4ccnn4)cc3)co2)cc1; result = 99.6%
